Measurements of several laboratories.
Lines come from different studies, so protocols differ. Values joined by “and” are separate records of one study, mostly repeats; a detail may differ. Numbers after ± are the reported error. ≈ marks a conversion by molar mass, not a printed value.

For `C=CCOc1ccc(-c2c(C)[nH]c(C)c(Br)c2=O)cc1`, the IC50 was 712 ± 360 nM (Plasmodium yoelii; 17XL; 384-well).
`C=CC[C@@H]1c2ccc(OC)c(OC)c2CN2CCc3cc4c(cc3[C@H]12)OCO4`: “relative wound size” 0.18 and 0.35 and 0.2 and 0.24 and 0.16 and 0.53 (Staphylococcus aureus; P2rx7+/+ mice, skin wound infection; dose not given, day 6; reference: day 0).
With `Cc1[nH]c(C)c(-c2ccc(-c3ccc(OC(F)(F)F)cc3)cc2)c(=O)c1Br` the IC50 was 63 ± 16 nM (Plasmodium yoelii; 17XL; 384-well).
`Cc1[nH]c(/C=C2\N=C(c3ccc[nH]3)C=C2OC(C)C)cc1Cc1ccc(Cl)cc1.Cl` has an ED90 of 2.2 mg/kg/day (Plasmodium yoelii; parasitaemia; mouse; 4-day treatment, parasitaemia day 5).
Under “% of maximum PPE”, `CCOc1ccc2cc(-c3nn(CC4CCN(C)CC4)c4ncnc(N)c34)ccc2n1` is recorded as 48.1% (Theileria equi; hydroethidine flow cytometry; USDA Florida; 6 µM, 72 h).
With `CN1CCN(c2cnc3c(cc(C(=O)NCc4ccc(Cl)cc4)c(=O)n3CC(=O)N3CC(C)(F)C3)n2)C1=O` the EC50 was 380 nM (herpes simplex virus 1; viral cytopathic effect; Vero; 120 h).
The mean lifespan of `CC(=O)N1CCC(C(=O)N2CCN3C(=O)c4cc(-c5ccccc5)ccc4NC(=O)C3C2)CC1` (stereo not drawn) is reported as 28.2 days (Caenorhabditis elegans; N2; 100 µM).
For `COc1ccc2nc3cc(Cl)ccc3c(Nc3ccc(C(=O)O)cc3)c2c1`, the IC50 was 974 ± 294 nM (Plasmodium yoelii; 17XL; 384-well).
With `O=C(Nc1cccc(C2=NCCN2)c1)Nc1cccc(C2=NCCN2)c1` the EC50 was 5 nM (Theileria equi; parasite growth, flow cytometry; equine erythrocytes, USDA Florida; 72 h).
`CN[C@H](CC(C)C)C(=O)N[C@H]1C(=O)N[C@@H](CC(N)=O)C(=O)N[C@H]2C(=O)N[C@H]3C(=O)N[C@H](C(=O)N[C@H](C(=O)O)c4cc(O)cc(O)c4-c4cc3ccc4O)[C@H](O)c3ccc(c(Cl)c3)Oc3cc2cc(c3O[C@@H]2O[C@H](CO)[C@@H](O)[C@H](O)[C@H]2O[C@H]2C[C@](C)(N)[C@H](O)[C@H](C)O2)Oc2ccc(cc2Cl)[C@H]1O` gave a post-antibiotic effect of 1.19 h (Staphylococcus aureus; MRSA ATCC 43300; 4 × MIC).
The EC50 of `CCOc1ccc2cc(-c3nn(CC4CCN(C)CC4)c4ncnc(N)c34)ccc2c1` is reported as 5720 nM (Theileria equi; parasite growth, hydroethidine flow cytometry; USDA Florida; 72 h).
For `Cc1nc(C)c(Cl)c(O)c1Cl`, the IC50 was 10500 nM (Trichomonas gallinae; CCK-8; trophozoites; 24 h).
`CCOC1=CC(c2ccc[nH]2)=N/C1=C\c1cc(Cc2ccc(Cl)cc2)c(C)[nH]1.Cl` has an ED50 of 1.56 mg/kg/day (Plasmodium yoelii; parasitaemia; mouse; 4-day treatment, parasitaemia day 5).
`CC(C)n1ncc2c(C(=O)NCC3(C)CNC3)cc(C3CC3)nc21` has a plaque reduction of 97.8% and 93.8% (enterovirus D68; recombinant US/MO/14-18947 wild type; 500 nM).
With `COC(=O)[C@@H](NCc1cc2ccccc2nc1OCc1ccccc1)C(C)C` the growth was 90.9% (Pseudomonas aeruginosa; 128 µg/mL, together with: pentamidine 100 µM; reference: control).
With `COC1=CC(c2ccc[nH]2)=N/C1=C\c1[nH]c(Cc2ccc(OC(F)(F)F)cc2)cc1Cc1ccc(OC(F)(F)F)cc1` the parasitaemia reduction was 100% (Plasmodium yoelii; CF1 mice; oral, 25 mg/kg daily for 4 days, day 5; reference: vehicle).
With `CCCCCCCCCC(=O)N[C@@H](Cc1c[nH]c2ccccc12)C(=O)N[C@H](CC(N)=O)C(=O)N[C@@H](CC(=O)O)C(=O)N[C@@H]1C(=O)NCC(=O)N[C@@H](CCCN)C(=O)N[C@@H](CC(=O)O)C(=O)N[C@H](C)C(=O)N[C@@H](CC(=O)O)C(=O)NCC(=O)N[C@H](CO)C(=O)N[C@@H]([C@H](C)CC(=O)O)C(=O)N[C@@H](CC(=O)c2ccccc2N)C(=O)O[C@@H]1C` the MIC was 0.063 µg/mL (≈ 0.0389 µM) (Staphylococcus simulans; broth microdilution; 22, Mueller-Hinton broth, Mg2+ 10 mg/L; 16 h, 30 °C, together with: Ca2+ 2.5 mM).
With `Nc1nc(-c2ccccc2)nc2[nH]nc(Nc3ccc(C(F)(F)F)cc3)c12` the clinical score was 0.1 (coxsackievirus B3; 31-1-93, NMRI mice, CVB3 chronic myocarditis; oral, 100 mg/kg twice daily, day 12, dosed days 0 to 6, score scale 0 to 7; direction not given).
For `COc1ccnc(C(=O)NC(CO)C(=O)O)c1O` (racemic), the EC50 was 4.4 µg/mL (Pseudokirchneriella subcapitata; growth rate).
With `Cc1ccc(/C=C2/SC(=Nc3ccccc3)NC2=O)c(C)c1` the IC50 was 1850 ± 561 nM (Plasmodium yoelii; 17XL; 384-well).
With `N=C(N)c1ccc(OCc2ccc(-c3ccccc3)cc2COc2ccc(C(=N)N)cc2)cc1` the FICI was 0.078 (Escherichia coli; checkerboard; mcr-1 polymyxin-resistant; unit not given, together with: rifampicin; lower = stronger synergy).
`N#Cc1cc(-c2nc3ccccc3s2)c(=O)n(NS(=O)(=O)c2ccc(Cl)cc2)c1N` gave a plaque reduction of 30% (coxsackievirus B4; viral replication, plaque; BGM; non-toxic dose, mean of three titres).
`CC1(C)S[C@@H]2[C@H](NC(=O)[C@H](N)c3ccccc3)C(=O)N2[C@H]1C(=O)O` has an MIC of greater than 16 µg/mL (Citrobacter freundii; clinical isolate RKI-No_604/16).
`C/C=C/COc1ccc(-c2c(C)[nH]c(C)c(Cl)c2=O)cc1` gave an IC50 of 333 ± 187 nM (Plasmodium yoelii; 17XL; 384-well).
`CN[C@H](CC(C)C)C(=O)N[C@H]1C(=O)N[C@@H](CC(N)=O)C(=O)N[C@H]2C(=O)N[C@H]3C(=O)N[C@H](C(=O)N[C@H](C(=O)O)c4cc(O)cc(O)c4-c4cc3ccc4O)[C@H](O)c3ccc(c(Cl)c3)Oc3cc2cc(c3O[C@@H]2O[C@H](CO)[C@@H](O)[C@H](O)[C@H]2O[C@H]2C[C@](C)(N)[C@H](O)[C@H](C)O2)Oc2ccc(cc2Cl)[C@H]1O` gave an MBC of 2 µg/mL (≈ 1.38 µM) (Staphylococcus aureus; broth microdilution; methicillin-susceptible isolates).
For `CCC1=C(CC)/C(=C/c2[nH]c(Cc3ccc(Cl)cc3)cc2Cc2ccc(Cl)cc2)N=C1c1ccc[nH]1`, the ED90 was 4.17 mg/kg/day (Plasmodium yoelii; parasitaemia; mouse; 4-day treatment, parasitaemia day 5).
For `O=C(Nc1ccc([N+](=O)[O-])cc1Cl)c1cc(Cl)ccc1O`, the IC50 was 360 nM (herpes simplex virus 1; viral replication; K26, GFP-expressing, 3D bioprinted skin, submerged).
For `Cc1[nH]c(C)c(-c2ccc(-c3ccc(Cl)cc3)cc2)c(=O)c1Cl`, the IC50 was 209 ± 48 nM (Plasmodium yoelii; 17XL; 384-well).
The inhibition of `Nc1cc(Cl)ccc1C(=O)NCCCCNc1ccnc2cc(Cl)ccc12` is reported as 29.5% (Chromobacterium violaceum; violacein production; ATCC 31532; 40 µM, quorum sensing reporter).
`c1cc(CN2CCN(c3ccncc3)CC2)cc(-c2ccc(-c3nc4ccccc4[nH]3)cc2)c1` has an IC50 of greater than 20000 nM (Plasmodium yoelii; 17XL; 384-well).
`CC(=O)c1c(O)c(C)c(O)c2c1OC1=CC(=O)C(C(C)=O)C(=O)C12C` (stereo not drawn) gave an IC50 of 15400 nM (Trichomonas gallinae; CCK-8; trophozoites; 24 h).
`O=c1cccc(O)c(O)c1O` — result for “reduction in viral titre”: 3.99 log10 (herpes simplex virus 1; viral replication; 50 µM).
`O=C(c1ccc(C(=O)N2CCC(N3CCCC3)CC2)c(Nc2ccccc2)c1)N1CCC(N2CCCC2)CC1` has a viability of 117% (HBL-1; 0.1 µM, 120 h).
For `COC1=CC(c2ccc[nH]2)=N/C1=C\c1cc(Cc2ccc(OC(F)(F)F)cc2)c(C)[nH]1.Cl`, the parasitaemia reduction was 100% (Plasmodium yoelii; CF1 mouse; oral, 80 mg/kg single dose, day 5).
`O=C(O)c1ccnc(C(=O)O)c1` has a viability of 103% (HBL-1; 1 µM, 120 h).
`C=C[C@]1(C)C[C@@H](OC(=O)CS[C@@H]2C[C@H]3CC[C@@H](C2)N3C)[C@]2(C)[C@H](C)CC[C@]3(CCC(=O)[C@H]32)[C@@H](C)[C@@H]1O` gave an MIC50 of 0.0312 µg/mL (≈ 0.0604 µM) (Streptococcus pneumoniae).
`CCOc1ccc2cc(-c3nn(CC4CCNCC4)c4ncnc(N)c34)ccc2c1`: “% of maximum PPE” 25.5% (Theileria equi; hydroethidine flow cytometry; USDA Florida; 6 µM, 72 h).
`O=C(c1cc(-c2cccs2)[nH]n1)N1CCN(S(=O)(=O)c2ccc(Cl)s2)CC1` has an IC50 of 1140 ± 439 nM (Plasmodium yoelii; 17XL; 384-well).
`CC[C@H]1OC(=O)[C@H](C)[C@@H](O[C@H]2C[C@@](C)(OC)[C@@H](O)[C@H](C)O2)[C@H](C)[C@@H](O[C@@H]2O[C@H](C)C[C@H](N(C)C)[C@H]2O)[C@](C)(O)C[C@@H](C)CN(C)[C@H](C)[C@@H](O)[C@]1(C)O` has an inhibition of 92.9% (Chromobacterium violaceum; violacein production; ATCC 31532; 400 µM, quorum sensing reporter).

Excerpt of the above:
`CC1(C)S[C@@H]2[C@H](NC(=O)[C@H](N)c3ccccc3)C(=O)N2[C@H]1C(=O)O` has an MIC of greater than 16 µg/mL (Citrobacter freundii; clinical isolate RKI-No_604/16).
`C/C=C/COc1ccc(-c2c(C)[nH]c(C)c(Cl)c2=O)cc1` gave an IC50 of 333 ± 187 nM (Plasmodium yoelii; 17XL; 384-well).
For `C=CCOc1ccc(-c2c(C)[nH]c(C)c(Br)c2=O)cc1`, the IC50 was 712 ± 360 nM (Plasmodium yoelii; 17XL; 384-well).
`Cc1[nH]c(/C=C2\N=C(c3ccc[nH]3)C=C2OC(C)C)cc1Cc1ccc(Cl)cc1.Cl` has an ED90 of 2.2 mg/kg/day (Plasmodium yoelii; parasitaemia; mouse; 4-day treatment, parasitaemia day 5).
With `O=C(Nc1cccc(C2=NCCN2)c1)Nc1cccc(C2=NCCN2)c1` the EC50 was 5 nM (Theileria equi; parasite growth, flow cytometry; equine erythrocytes, USDA Florida; 72 h).
For `Cc1[nH]c(C)c(-c2ccc(-c3ccc(Cl)cc3)cc2)c(=O)c1Cl`, the IC50 was 209 ± 48 nM (Plasmodium yoelii; 17XL; 384-well).
